Earlier results, collected from citations in different studies.
Each numbered part shows a few of the values that one paper quotes. pIC50, pKi: −log10 of the molar value.

Sample 1
Organism: Cryptosporidium parvum
Method: high-throughput screen
Tested at: concentration not given
| SMILES | activity |
| --- | --- |
| S=c1[nH]cnc2nc[nH]c12 | inactive |
| CCN(CC)CCOC(=O)c1ccc(N)cc1 | inactive |
| O=c1c(O[C@@H]2O[C@H](CO)[C@@H](O)[C@H](O)[C@H]2O)c(-c2ccc(O)c(O)c2)oc2cc(O)cc(O)c12 | inactive |
| CCOC(=O)N1CCC(=C2c3ccc(Cl)cc3CCc3cccnc32)CC1 | inactive |
| COCCCOc1ccnc(C[S+]([O-])c2nc3ccccc3[nH]2)c1C (stereo not drawn) | inactive |

Further values, each from its own experiment
| SMILES | target or system | test | setting | quantity | value |
| --- | --- | --- | --- | --- | --- |
| O=C(O)c1cc(-c2ccc(C3CCNCC3)cc2)c2ccc(-c3ccc(C(F)(F)F)cc3)cc2c1 | MAPK14 | enzyme activity, Eurofins-Panlabs panel | concentration not given | pIC50 | 8.53 |
| O=c1c2ccccc2[nH]c2ccccc12 |  |  |  | logP | 3 |
| Cc1cc(Nc2nccc(C)n2)cc(-c2cnc([C@@]3(O)CC[C@H](C(=O)O)C(C)(C)C3)s2)c1 | NTRK3 |  | kinase panel | pIC50 | 6.92 |
| O=c1[nH]cc(F)c(=O)[nH]1 | MCF7 |  |  | pIC50 | 5.57 |
| Cn1cncc1[C@](O)(COc1ccc(C#N)cc1-c1ccc(OC(F)(F)F)cc1)c1ccc(C#N)cc1 | FNTB | biochemical activity |  | pIC50 | 10.30 |
| COc1cccc2c1C(=O)c1c(O)c3c(c(O)c1C2=O)C[C@@](O)(C(=O)CO)C[C@@H]3O[C@H]1C[C@H](N)[C@H](O)[C@H](C)O1 | HeLa |  |  | pIC50 | 4.78 |
| CC(=O)Nc1c(C(C)=O)c(=O)n(C)c2nc(-c3ccc(Cl)cc3Cl)c(-c3ccc(Cl)cc3)cc12 | SLC18A2 | MSD Pharma Taiwan panel screen |  | pKi | 6.19 |

Repeated from above (further values, each from its own experiment):
| SMILES | target or system | test | setting | quantity | value |
| --- | --- | --- | --- | --- | --- |
| CC(=O)Nc1c(C(C)=O)c(=O)n(C)c2nc(-c3ccc(Cl)cc3Cl)c(-c3ccc(Cl)cc3)cc12 | SLC18A2 | MSD Pharma Taiwan panel screen |  | pKi | 6.19 |
